Measurements of several laboratories.
Every numbered part comes from another study and shows a few of its results, in no order. Substitutions count along the parent as printed.

Sample 1
Target: CRIPT, C-terminal peptide
Technique: DHFR complementation, deep sequencing
Sample: yeast
Setting: single substitutions, model-inferred values
Reference: wild type
Direction: higher = weaker binding
Quantity: binding free energy change
Starting sequence: ERBIN, PDZ domain 1 (human); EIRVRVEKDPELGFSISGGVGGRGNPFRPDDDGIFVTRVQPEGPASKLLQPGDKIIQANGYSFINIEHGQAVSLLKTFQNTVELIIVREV; partner TKNYKQTSV
I86K: 1.11 kcal/mol
V72K: 1.64 kcal/mol
E7Y: 0.252 kcal/mol
F14I: -1.21 kcal/mol
E42G: 0.0335 kcal/mol
E11P: 0.447 kcal/mol
D53E: 0.626 kcal/mol
K76T: 0.364 kcal/mol

Sample 2
Target: UDP-N-acetylglucosamine--peptide N-acetylglucosaminyltransferase 110 kDa subunit (OGT, Homo sapiens, UniProt O15294)
Read-out: phage display binding
Technique: phage display panning NGS
Molecule type: peptide
Reference: OGT-panned over input library
Quantity: log2 fold enrichment
Construct (O15294 1-1046): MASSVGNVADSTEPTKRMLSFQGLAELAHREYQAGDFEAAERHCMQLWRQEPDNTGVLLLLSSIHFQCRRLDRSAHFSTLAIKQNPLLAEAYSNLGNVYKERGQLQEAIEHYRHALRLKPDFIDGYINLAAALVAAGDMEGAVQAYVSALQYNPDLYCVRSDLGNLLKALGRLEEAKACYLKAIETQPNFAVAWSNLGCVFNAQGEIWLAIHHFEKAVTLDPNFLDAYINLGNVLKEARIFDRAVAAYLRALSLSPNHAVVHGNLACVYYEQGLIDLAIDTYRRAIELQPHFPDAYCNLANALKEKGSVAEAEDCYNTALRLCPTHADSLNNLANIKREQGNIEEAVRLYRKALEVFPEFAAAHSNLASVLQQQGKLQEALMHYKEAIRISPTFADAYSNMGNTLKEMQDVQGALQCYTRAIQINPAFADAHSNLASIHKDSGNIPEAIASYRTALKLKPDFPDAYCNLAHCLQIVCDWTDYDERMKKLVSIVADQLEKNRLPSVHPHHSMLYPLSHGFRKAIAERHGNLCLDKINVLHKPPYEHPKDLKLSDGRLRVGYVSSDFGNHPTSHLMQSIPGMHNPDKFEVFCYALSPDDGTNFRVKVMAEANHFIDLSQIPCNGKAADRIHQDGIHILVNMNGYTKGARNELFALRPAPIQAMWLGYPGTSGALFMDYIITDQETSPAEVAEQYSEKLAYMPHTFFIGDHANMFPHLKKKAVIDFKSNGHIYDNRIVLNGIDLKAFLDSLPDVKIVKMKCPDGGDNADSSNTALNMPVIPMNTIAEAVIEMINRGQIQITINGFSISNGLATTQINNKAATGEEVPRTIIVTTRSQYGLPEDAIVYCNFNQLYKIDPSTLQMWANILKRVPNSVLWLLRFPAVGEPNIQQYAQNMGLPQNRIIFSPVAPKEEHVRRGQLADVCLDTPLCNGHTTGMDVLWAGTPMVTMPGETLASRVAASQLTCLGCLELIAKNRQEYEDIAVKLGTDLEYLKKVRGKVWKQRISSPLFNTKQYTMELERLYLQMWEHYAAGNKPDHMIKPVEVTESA
WPSVMHHHHVQQTAA: 4.21
ANYLPMYQMPVTVY: 1.69
HSDPTGYLHHHHFL: 2.13
ASPSYVPHYQMVYKI: 3.75

Sample 3
Target: Histone acetyltransferase KAT6A, winged helix 2, GST fusion (KAT6A, Homo sapiens, UniProt Q92794, residues 85-181)
Technique: protein binding microarray
Molecule type: double-stranded DNA, one strand shown
Sample: in vitro
Concentration: not given
Setting: 8-mer, flanks averaged, mean of 2 arrays, mostly near background
Reference: not given
Direction: higher = stronger binding
Quantity: E-score
Target sequence (chain): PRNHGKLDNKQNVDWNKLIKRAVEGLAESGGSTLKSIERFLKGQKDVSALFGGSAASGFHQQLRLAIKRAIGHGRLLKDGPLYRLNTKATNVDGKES
GCTAAACC: 0.176
AGAACACC: -0.0257
AAGCGGAT: 0.0239
CATCTCTC: -0.111
CGTTGCAA: -0.0153
TAAGTACA: -0.212
CGTTAAGA: -0.0876
GTGGTGTA: -0.00585

Sample 4
Target: inorganic phosphate, free oxyanion
Technique: microfluidic competitive inhibition
Sample: in vitro, cell-free expressed
Concentration: not given
Setting: derived from inhibition constants, unchanged parent 615000 nM
Direction: lower = stronger binding
Quantity: phosphate dissociation constant
Starting sequence: PafA, mature enzyme, eGFP fusion (Elizabethkingia meningoseptica, UniProt Q9KJX5); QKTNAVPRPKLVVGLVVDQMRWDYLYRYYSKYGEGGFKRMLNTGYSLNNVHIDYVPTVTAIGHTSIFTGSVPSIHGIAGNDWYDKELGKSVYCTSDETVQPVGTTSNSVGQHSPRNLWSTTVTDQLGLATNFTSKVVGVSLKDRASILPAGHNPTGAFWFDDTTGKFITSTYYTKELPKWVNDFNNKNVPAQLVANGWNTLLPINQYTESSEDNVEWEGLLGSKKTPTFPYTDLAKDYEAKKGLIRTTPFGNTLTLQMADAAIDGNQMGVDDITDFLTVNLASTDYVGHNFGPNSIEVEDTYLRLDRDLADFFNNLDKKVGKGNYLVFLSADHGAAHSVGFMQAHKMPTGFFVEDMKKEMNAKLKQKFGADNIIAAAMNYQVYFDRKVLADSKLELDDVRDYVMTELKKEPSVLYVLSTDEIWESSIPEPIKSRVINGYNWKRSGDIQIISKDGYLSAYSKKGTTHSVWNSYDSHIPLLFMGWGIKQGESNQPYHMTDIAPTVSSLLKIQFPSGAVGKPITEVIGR
Q206V: 651 µM
F368V: 665 µM
E212G: 617 µM

For quick reference, copied from above (sample 1):
I86K: 1.11 kcal/mol
E7Y: 0.252 kcal/mol
